Measurements gathered from unrelated publications.
Compare with care: the assays were run in different laboratories. Several values in a cell are separate wells, animals, samples, runs or records.
Cell line: HepG2

SMILES | observed | technique | time | notes | CC50
CCc1cc(CCN)nc(-c2nc(=O)c3ccccc3s2)c1 | cell growth or viability |  |  |  | > 25 µM
O[C@H](CNCCNC(c1ccccc1)c1ccccc1)c1cc(Cl)cc2c1-c1ccc(Cl)cc1C2 | cell growth or viability |  | 48 h |  | 3 µM
Cc1ccc(S(=O)(=O)n2cc3c4c2C(=O)C(NCCc2ccc(O)cc2)=CC4=NCC3)cc1 | cell growth or viability | MTT | 72 h |  | 1.25 µM
CC1(C)C(NC(=O)C(=NOC2(C(=O)O)CC2)c2csc(N)n2)C(=O)N1OS(=O)(=O)O (stereo not drawn) | cell growth or viability |  |  |  | > 100 µM
Cc1cc(C(=O)Nc2nc3cccc(C)c3n2[C@H]2CCCCN(C(=O)/C=C/CN(C)C)C2)ccn1 | cytotoxicity |  | 4 days | single replicate | 6.35 µM and 7.91 µM and 10.1 µM and 8 µM
COC1=CC2=NCCc3c[nH]c(c32)C1=O | cell growth or viability | MTT | 72 h |  | 25 µM
Cc1ccc2c(c1)nc(NC(=O)c1cccc(C(F)(F)F)c1)n2[C@H]1CC[C@H](N)CC1 | cytotoxicity |  | 4 days | mean value | 2.35 µM
O=C1c2cc(Cl)ccc2-n2c1nc1cccc(Cl)c1c2=O | cell growth or viability | ATP luminescence |  |  | ≥ 100 µM
NCCc1cccc(-c2nc(=O)c3ccccc3s2)n1 | cell growth or viability | resazurin | 24 h |  | 73.4 µM
CCOC(=O)c1c(C(=O)OC)cn(CC(c2cn(C)c3ccccc23)c2cn(C)c3ccccc23)c1C | cell growth or viability | MTS | 24 h |  | > 20 µM
CCc1nnc(-c2ccc3ccn(CC(=O)Nc4cc(OC)c(OC)c(OC)c4)c3c2)o1 | cell growth or viability |  |  |  | > 40 µM
Cc1ccc(S(=O)(=O)n2cc3c4c2C(=O)C(N)=CC4=NCC3)cc1 | cell growth or viability | MTT | 72 h |  | 1.5 µM
CCc1cc(CCC(=O)O)nc(-c2nc(=O)c3ccccc3s2)c1 | cell growth or viability |  |  |  | > 25 µM
COc1ccc(CCNC2=CC3=[N+](C)CCc4c[nH]c(c43)C2=O)cc1 | cell growth or viability | MTT | 72 h |  | 0.3 µM
CC(F)(F)CCCNC[C@@H](O)c1cc(Cl)cc2c1-c1ccc(Cl)cc1C2 | cell growth or viability |  | 48 h |  | 2.7 µM

A few entries again:
SMILES | observed | technique | time | notes | CC50
CC1(C)C(NC(=O)C(=NOC2(C(=O)O)CC2)c2csc(N)n2)C(=O)N1OS(=O)(=O)O (stereo not drawn) | cell growth or viability |  |  |  | > 100 µM
Cc1cc(C(=O)Nc2nc3cccc(C)c3n2[C@H]2CCCCN(C(=O)/C=C/CN(C)C)C2)ccn1 | cytotoxicity |  | 4 days | single replicate | 6.35 µM and 7.91 µM and 10.1 µM and 8 µM
